Assay results of several laboratories.
Each line is one published result; not all experiments were run side by side. ± marks the error that the study gave. In brackets after ≈: the same amount, converted by molar mass.

Compound	target or system	test	test system	setting	scale	quantity	value
CC[C@H](C)[C@H](NC(=O)[C@H](C)NC(=O)[C@H](CCCCN)NC(=O)[C@H](CC(C)C)NC(=O)[C@H](C)NC(=O)[C@@H](NC(=O)[C@H](Cc1c[nH]cn1)NC(=O)[C@H](CC(C)C)NC(=O)[C@@H](NC(=O)[C@@H](NC(=O)[C@H](CCCCN)NC(=O)[C@H](C)NC(=O)[C@H](C)NC(=O)[C@H](CO)NC(=O)[C@H](CCCCN)NC(=O)[C@H](Cc1ccccc1)NC(=O)[C@@H](NC(=O)[C@H](CCCCN)NC(=O)[C@H](CC(C)C)NC(=O)[C@H](Cc1ccccc1)NC(=O)[C@H](CO)NC(=O)[C@H](CCCCN)NC(=O)[C@H](Cc1c[nH]c2ccccc12)NC(=O)[C@H](CCCCN)NC(C)=O)[C@@H](C)O)[C@@H](C)O)C(C)C)[C@@H](C)O)C(=O)N[C@@H](CO)C(=O)N[C@@H](CO)C(N)=O	Pseudomonas aeruginosa	–	IPM-R	81 strains	–	MBC50	16 µg/mL (≈ 5.45 µM)
CC[C@H](C)[C@@H]1NC(=O)[C@@H]2CCCN2C(=O)[C@H](CC(C)C)NC(=O)[C@H](CC(C)C)NC(=O)CNC(=O)[C@@H](NC(=O)[C@@H](NC(=O)[C@H](CC(=O)O)NC(=O)CNC(=O)[C@@H](NC(=O)[C@H](C)NC(=O)CNC(=O)[C@H](CCCCN)NC(=O)[C@H](CC(C)C)NC(=O)[C@H](CC(C)C)NC(=O)[C@H](CCCCN)NC(=O)CNC(=O)[C@@H](NC(=O)[C@@H](N)CC(C)C)C(C)C)C(C)C)C(C)C)CSSC[C@@H](C(=O)O)NC1=O	–	RNA-seq, refers to: novel.247 mRNA	mouse traumatic brain injury, frontal cortex and hippocampus	dose not given	baseline: TBI plus compound vs TBI	log2 fold change	-1.86
COCC(=O)N1CCC[C@H](C(=O)NCc2nc(-c3ccccc3)cs2)C1	Plasmodium falciparum	–	Dd2 β5 S27F CRISPR-edited	–	–	EC50	> 50000 nM
CCC(C)n1ncn(-c2ccc(N3CCN(c4ccc(OCC5COC(Cn6cncn6)(c6ccc(Cl)cc6Cl)O5)cc4)CC3)cc2)c1=O (stereo not drawn)	coxsackievirus A16	viral replication, inhibitor	–	72 h	–	EC50	60 ± 10 nM
c1cc(CN2CCCNCCNCCCNCC2)ccc1CN1CCCNCCNCCCNCC1	HIV-2	viral replication	MT-4, ROD	–	–	EC50	0.0122 µg/mL
C[C@H]1CN(c2n[nH]c3nc(N[C@H]4CC[C@H](NS(=O)(=O)CCC(F)(F)F)CC4)ncc23)CCO1	Leishmania donovani	cell growth	promastigotes, LdBOB CRK6 overexpressing	–	–	EC50	10.1 ± 0.1 nM
COc1c(CCC[P+](c2ccccc2)(c2ccccc2)c2ccccc2)cc2c(c1OC)OCO2.[I-]	OVCAR-3	SRB	–	–	–	GI50	-6.2 log M
O=c1[nH]c(=O)n([C@H]2C[C@H](O)[C@@H](CO)O2)cc1/C=C/Br	varicella-zoster virus	plaque formation	HEL, Oka, TK-	–	–	EC50	107000 nM
Cn1c([N+](=O)[O-])cnc1COc1ccc(S(C)(=O)=O)cc1	Leishmania donovani	–	LdBOB wild-type promastigotes	–	–	EC50	8100 ± 100 nM
O=c1[nH]c(=O)n([C@H]2C[C@H](O)[C@@H](CO)O2)cc1/C=C/Br	varicella-zoster virus	viral replication	HEL, 07-1 TK-	–	–	EC50	5890 nM
CCC(C(=O)Nc1sc(C(N)=O)c(C)c1C(=O)OC)c1ccccc1 (stereo not drawn)	human alphaherpesvirus 1	viral replication	Vero	53 h	–	EC50	> 100000 nM
Nc1ccn(C[C@@H](CO)OCP(=O)(O)O)c(=O)n1	human alphaherpesvirus 1	virus-induced cytopathogenicity	HEL, KOS TK- acyclovir-resistant	–	–	EC50	2000 nM
COc1cc2c(Oc3ccc4[nH]c(C)cc4c3F)ccnc2cc1OCC1(N)CC1	–	–	paediatric recurrent refractory sarcoma	12 mg	–	grade 1 or 2 bone pain	0%
Nc1nc2c(ncn2COCCO)c(=O)[nH]1	herpes simplex virus 2	viral cytopathic effect	HEL, G	–	–	EC50	80 nM
COc1cc(CCC[P+](c2ccccc2)(c2ccccc2)c2ccccc2)c(OC)c2c1OCO2.[I-]	M14	SRB	–	–	–	GI50	-5.75 log M
CC[C@H](C)[C@H](NC(=O)[C@H](Cc1ccccc1)NC(=O)[C@H](CCC(=O)O)NC(=O)[C@H](CCCNC(=N)N)NC(=O)[C@H](C)NC(=O)[C@H](C)NC(=O)[C@H](CCC(N)=O)NC(=O)[C@H](CCC(=O)O)NC(=O)[C@H](CCC(=O)O)NC(=O)[C@H](CC(C)C)NC(=O)[C@H](Cc1ccc(O)cc1)NC(=O)[C@H](CO)NC(=O)[C@H](CO)NC(=O)[C@@H](NC(=O)[C@H](CC(=O)O)NC(=O)[C@H](CO)NC(=O)[C@@H](NC(=O)[C@H](Cc1ccccc1)NC(=O)[C@@H](NC(=O)CNC(=O)[C@H](CCC(=O)O)NC(=O)[C@H](C)NC(=O)CCc1c[nH]cn1)[C@@H](C)O)[C@@H](C)O)C(C)C)C(=O)N[C@@H](C)C(=O)N[C@@H](Cc1c[nH]c2ccccc12)C(=O)N[C@@H](CC(C)C)C(=O)N[C@H](C(=O)N[C@@H](CCCNC(=N)N)C(=O)NCC(=O)N[C@@H](CCCNC(=N)N)C(=O)N[C@@H](CCCCNC(=O)COCCOCCNC(=O)COCCOCCNC(=O)CC[C@H](NC(=O)CCCCCCCCCCCCCCCCC(=O)O)C(=O)O)C(=O)NCC(=O)NCC(=O)N[C@@H](CO)C(=O)N[C@@H](CCCCNc1c(NCCCCCN(O)C(=O)CCC(=O)NCCCCCN(O)C(=O)CCC(=O)NCCCCCN(O)C(C)=O)c(=O)c1=O)C(=O)O)C(C)C [zirconium-89 labelled]	–	–	rat, lung	sc, 3 nmol/kg, 168 h, ex vivo	–	tissue uptake	0.73 %ID/g
CNCC(=O)N[C@@H](CO)C(=O)N[C@H]1[C@H](O)[C@@H](O)[C@H](n2ccc(N)nc2=O)O[C@@H]1C(N)=O	tobacco mosaic virus	protective activity	in vivo plant	–	–	EC50	271 ± 2.8 µg/mL
COC(=O)N[C@H](C(=O)N1CCC[C@H]1c1ncc(-c2ccc(-c3ccc(-c4cnc([C@@H]5CCCN5C(=O)[C@@H](NC(=O)OC)C(C)C)[nH]4)cc3)cc2)[nH]1)C(C)C	hepatitis C virus	viral replication, transient replicon	genotype 1a NS5A WT	–	–	EC50	0.0049 nM

Some of these lines once more:
Compound	target or system	test	test system	setting	scale	quantity	value
CNCC(=O)N[C@@H](CO)C(=O)N[C@H]1[C@H](O)[C@@H](O)[C@H](n2ccc(N)nc2=O)O[C@@H]1C(N)=O	tobacco mosaic virus	protective activity	in vivo plant	–	–	EC50	271 ± 2.8 µg/mL
COC(=O)N[C@H](C(=O)N1CCC[C@H]1c1ncc(-c2ccc(-c3ccc(-c4cnc([C@@H]5CCCN5C(=O)[C@@H](NC(=O)OC)C(C)C)[nH]4)cc3)cc2)[nH]1)C(C)C	hepatitis C virus	viral replication, transient replicon	genotype 1a NS5A WT	–	–	EC50	0.0049 nM
